Measured values gathered from unrelated publications.
Several values in a cell are separate wells, animals, samples, runs or records. ± gives the spread as reported.
Sequence of UniProt P05181 (whole entry, looked up): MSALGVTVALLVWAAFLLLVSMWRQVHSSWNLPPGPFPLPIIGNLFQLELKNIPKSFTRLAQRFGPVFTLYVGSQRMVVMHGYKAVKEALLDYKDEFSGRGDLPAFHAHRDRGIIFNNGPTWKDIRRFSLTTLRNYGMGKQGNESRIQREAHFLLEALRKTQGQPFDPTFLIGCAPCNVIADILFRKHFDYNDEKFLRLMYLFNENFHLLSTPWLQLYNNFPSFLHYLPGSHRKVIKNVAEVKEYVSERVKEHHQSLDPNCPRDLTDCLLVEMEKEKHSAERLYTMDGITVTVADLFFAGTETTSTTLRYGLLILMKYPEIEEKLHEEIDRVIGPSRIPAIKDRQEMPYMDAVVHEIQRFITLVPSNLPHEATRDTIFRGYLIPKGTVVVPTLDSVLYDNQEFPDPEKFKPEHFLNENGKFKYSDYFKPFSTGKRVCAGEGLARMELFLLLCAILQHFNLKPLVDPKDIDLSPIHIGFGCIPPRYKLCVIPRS
Sequence of UniProt P22309 (whole entry, looked up): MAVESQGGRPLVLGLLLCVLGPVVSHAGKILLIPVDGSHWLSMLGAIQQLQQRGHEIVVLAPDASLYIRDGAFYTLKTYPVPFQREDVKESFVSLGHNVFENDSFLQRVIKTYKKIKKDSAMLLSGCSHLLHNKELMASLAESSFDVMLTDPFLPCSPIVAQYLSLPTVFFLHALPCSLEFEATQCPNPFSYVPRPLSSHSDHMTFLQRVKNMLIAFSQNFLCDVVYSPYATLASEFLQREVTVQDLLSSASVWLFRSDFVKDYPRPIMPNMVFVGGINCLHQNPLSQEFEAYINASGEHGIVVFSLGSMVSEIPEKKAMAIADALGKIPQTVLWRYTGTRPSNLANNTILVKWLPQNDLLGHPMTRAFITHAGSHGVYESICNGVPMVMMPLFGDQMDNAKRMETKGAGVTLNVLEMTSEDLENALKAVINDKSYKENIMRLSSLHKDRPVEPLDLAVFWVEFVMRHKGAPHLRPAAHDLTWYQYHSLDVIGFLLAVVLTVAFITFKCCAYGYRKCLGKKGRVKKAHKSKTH

| Structure (SMILES) | target or system | test | system | setting | how to read | endpoint | result |
| --- | --- | --- | --- | --- | --- | --- | --- |
| O=C1c2c(O)c(=O)ccn2N([C@@H]2c3ccccc3SCc3c2ccc(F)c3F)[C@@H]2COCCN12 |  |  | BALB/c mice, plasma | oral, 15 mg/kg baloxavir marboxil, 4 h |  | plasma concentration | 70.4 ng/mL |
| CCOC(=O)c1c(NC(=O)CNC(C)C)sc2c1CCCCC2 | HEK293 | CellTiter-Blue |  | 50 µM |  | viability | 98.5 ± 1% |
| Cc1cc2c(c(O)c1O)C(=O)c1c(O)cc(O)cc1C2=O | HK-2 co-cultured with HepaRG | MTT |  | 33.33 µM, 24 h | relative to: untreated control | cell viability | 99.2 ± 12.3% |
| [Cl-].[Cl-].[Pt+2].[Ru+2].c1ccc(-c2nccnc2-c2ccccn2)nc1.c1cnc2c(c1)ccc1cccnc12.c1cnc2c(c1)ccc1cccnc12 | Danio rerio |  | embryos | 45 µM, 48 h |  | hatching rate | 13 ± 6.2% |
| COc1cc2ncnc(Nc3cccc(Cl)c3)c2cc1OC | HaCaT |  |  | 1.235 µM, 60 h |  | viability | 98.4% and 100% and 95.1% |
| O=C1c2ccccc2C(=O)c2ccccc21 | HepaRG co-cultured with HK-2 | MTT |  | 33.33 µM, 24 h | relative to: untreated control | cell viability | 85.3 ± 3.68% |
| CC(=O)N1CCC(C(=O)N2CCN3C(=O)c4cc(-c5ccccc5)ccc4NC(=O)C3C2)CC1 (centres unmarked) | Salmonella typhimurium |  | TA100 | 15.8 µg/plate, added: rat liver S9 |  | revertants per plate | 118 |
| CN[C@]1(c2ccccc2Cl)CCCCC1=O | UDP-glucuronosyltransferase 1A1 (UGT1A1, Homo sapiens, UniProt P22309) | enzyme activity |  | 30 µM |  | inhibition | 2% |
| CC1(C)[C@H](C=C(Cl)Cl)[C@H]1C(=O)OCc1cccc(Oc2ccccc2)c1 | human microsomal CES1 | IVIVE from expressed enzymes | human, 6 months old, expressed human CES1 | 0.1 µM | relative to: total hepatic CLint in vivo | relative enzyme contribution | 53.5% |
| CO[C@H]1C[C@@H]2CC[C@@H](C)[C@@](O)(O2)C(=O)C(=O)N2CCCC[C@H]2C(=O)O[C@H]([C@H](C)C[C@@H]2CC[C@@H](OC(=O)NCCOCCOCCOCCOCCOCCOCCOCCOCCC(=O)N3CCc4cc(Cn5nc(-c6ccc7oc(N)nc7c6)c6c(N)ncnc65)ccc4C3)[C@H](OC)C2)C[C@@H](O)[C@H](C)/C=C(\C)[C@@H](O)[C@@H](OC)C(=O)[C@H](C)C[C@H](C)/C=C/C=C/C=C/1C |  | phase 1 dose escalation, refers to: headache | advanced solid tumour patients | intravenous, 12 mg weekly, grade ≥3 |  | TRAE incidence | 0% |
| COc1ccc2c(c1OC)C(=O)c1c(cc(C)c(O)c1OC)C2=O | HK-2 co-cultured with HepaRG | MTT |  | 33.33 µM, 48 h | relative to: untreated control | cell viability | 76.3 ± 4.16% |
| CC(C)CC(=O)OC[C@H]1O[C@@](C#N)(c2ccc3c(N)ncnn23)[C@H](O)[C@@H]1O | Cytochrome P450 2E1 (CYP2E1, Homo sapiens, UniProt P05181) | metabolic stability | recombinant enzyme | 1 µM |  | intrinsic clearance | < 0.0353 µL/min/pmol |
| OC(CCN1CC=C(c2ccc(F)cc2)CC1)c1ccc(F)c2ccccc12 (centres unmarked) | Salmonella typhimurium | genotoxicity, SOS/umu test | TA1535/pSK1002 | 0.004 mg/mL, 4 h, with S9, full range |  | induction factor | 1 |
| C[C@]1(CO)Cc2ncn(-c3ccc(C#N)c(Cl)c3)c2C(=O)O1 |  | investigator-assessed | human, Chinese | 60 mg single dose |  | subjects with drug-related TEAEs | 0% |
| COc1cccc(-c2n[nH]c(SCc3ccccn3)n2)c1OC | Salmonella typhimurium | Ames test, plate incorporation | TA1535 | 0.50 mg/plate, without S9 |  | revertant colonies per plate | 12 |
| CC1(C)C(C=C(Cl)Cl)C1C(=O)OC(C#N)c1ccc(F)c(Oc2ccccc2)c1 (centres unmarked) | human CYP3A5 | IVIVE from expressed enzymes | human, liver, in vivo scaled | 0.1 µM, age-specific |  | enzyme contribution to CLint | 0.2% |
| O=c1ccc2ccccc2o1 | HepaRG 3D spheroids | cellular ATP, high-content screening |  | concentration not given, 24 h, 10% FBS medium |  | probability of response | 33.2% |
| Cc1cc(C(=O)NC(C)(C)COc2cccc3c2C(N)=NS(=O)(=O)N3)cc(C)n1 | Salmonella typhimurium | Ames test, initial | TA98 | 5.00 µg/plate, added: rat liver S9 | relative to: solvent control | revertant ratio | 0.9 |
| CCc1ccc(CC/C=C/c2ccc3c(c2)C(=O)CC3)cc1 |  |  | Sprague-Dawley rat, female | oral, 120 mg/kg/day, 14 days |  | AST serum activity | 107 U/L |
| [Cl-].[Cl-].[Pt+2].[Ru+2].c1ccc(-c2nc3cc4ccccc4cc3nc2-c2ccccn2)nc1.c1cnc2c(c1)ccc1cccnc12.c1cnc2c(c1)ccc1cccnc12 | Danio rerio |  | embryos | 15 µM, 24 h |  | survival rate | 96.7 ± 2.2% |
| COc1cc2c(Oc3ccc4[nH]c(C)cc4c3F)ccnc2cc1OCC1(N)CC1 |  |  | paediatric recurrent refractory sarcoma | concentration not given, whole group |  | grade 1 or 2 TBIL elevation | 0% |
| CC(=O)OC[C@H]1O[C@@H](Oc2cc(O)cc3cc4oc(C)cc(=O)c4c(O)c23)[C@H](O)[C@@H](O)[C@@H]1O | HepaRG co-cultured with HK-2 | MTT |  | 16.67 µM, 24 h | relative to: untreated control | cell viability | 102 ± 15% |
| Cc1ncc2n1-c1ccc(Cl)cc1C(c1ccccc1F)=NC2 |  |  | wild-type mice, plasma | intravenous, 0.3 mg/kg, added: 3-day PB, BC 500 mg/kg and PCN 10 mg/kg |  | AUC(0-inf) | 0.042 ± 0.00585 µM·h |
